Measured values gathered from unrelated publications.
± gives the spread as reported.
ALB: Albumin (ALB, Homo sapiens, UniProt P02768)
uncharacterized protein: uncharacterized protein (Spodoptera exigua, UniProt F1CEY0)

SMILES	target	test	system	setting	how to read	measurement	result
[O-][S+]1CCCCS1 (stereo not shown)	SOD1 (Homo sapiens, UniProt P00441, G94A)	intact protein LC-MS	SOD1 G93A transgenic mice, whole blood	intravenous, 10 mg/kg, 1 h, mean of two mice		target engagement	61.8%
CC1CC(c2ccccc2)n2nc(N3C(=O)C4CC=CCC4C3=O)nc2N1 (stereo not shown)	ADORA2A (Homo sapiens, UniProt P29274)	radioligand displacement		with: [3H]ZM241385		ligand efficiency	0.29
N[C@H](CNC(=O)c1cc(Br)c(-c2ccccc2F)s1)C(=O)O	Glutamate receptor ionotropic, NMDA 1, with GluN2C (Grin1, Rattus norvegicus, UniProt P35439, S688A)		rat	with: glutamate 300 µM		Hill slope	1.22
CCCCCCCCCCCCCCCCCCc1ccc(O)cc1	ALB	binding, fluorescence quenching		37 °C, protein 10 µM		Stern-Volmer constant	8.58 mg/mL
O=C(O)C1CCCNC1 (stereo not shown)	SLC6A6 (Homo sapiens, UniProt P31641, Y138A)	binding, microscale thermophoresis		7.81 µM, room temperature, with: 50 nM labelled protein	higher = more binding	normalised MST signal	0.297
CCC/C=C\CO	uncharacterized protein	binding, 1-NPN competitive displacement		protein 2.0 µM, with: 1-NPN 20 µM	reference: 1-NPN without compound, lower = stronger binding	relative fluorescence	72.6%
c1ccc(C(NCc2cccnc2)(c2ccccc2)c2ccccc2)cc1	KCNQ1 (Homo sapiens, UniProt P51787)	whole-cell patch clamp		300 pM		current decay	55 ± 12%
CCN1CCC[C@H]1CNC(=O)c1c(O)c(Cl)cc(Cl)c1OC	TAAR1 (Homo sapiens, UniProt Q96RJ0)	β-arrestin recruitment, TANGO luminescence, item: TA1		concentration not given	reference: basal luminescence	log2 fold change	0.159
O=c1nc(SCc2cc(F)cc(C(F)(F)F)c2)nc(SCc2csc3ccc(Cl)cc23)[nH]1	TOP2B (Homo sapiens, UniProt Q02880)	decatenation		125 µM, replicate 1		decatenated DNA	0%
Cc1ccc(C[C@H](NC(=O)OC(C)(C)C)C(=O)NC/C=C/S(=O)(=O)c2ccccc2)cc1	Procathepsin L (CTSL, Homo sapiens, UniProt P07711)	inhibitor		with: Z-Phe-Arg-pNA		kinact/Ki	5840 M⁻¹ s⁻¹
Cc1occc(=O)c1[O-].[Cl-].[W+4].c1cc[cH-]c1.c1cc[cH-]c1	ALB	fluorescence quenching		288 K		Stern-Volmer quenching constant	11900 L/mol
CC[C@@H]1[C@H](F)C(=O)N[C@@H]1COc1nccc2cc(C(N)=O)c(OC)cc12	SNRK (Homo sapiens, UniProt Q9NRH2)	ATP-site probe binding, ActivX profiling	THP-1 cell lysate	0.2 mM, Lys1 site		inhibition	8.5%
CCCCCCCCCCCCCCCCC	uncharacterized protein	binding, competitor, fluorescence displacement		20 µM, pH 7.4, with: 1-NPN 20 µM	reference: 1-NPN alone	relative fluorescence	82.8%
C#Cc1c(F)ccc2cc(O)cc(-c3ncc4c(N5CC6CCC(C5)N6)nc(OC[C@@]56CCCN5C[C@H](F)C6)nc4c3F)c12	GTPase KRas, GppNHp-bound (KRAS, Homo sapiens, UniProt P01116, G12V)	binding				dissociation rate constant	0.00776 ± 0.00065 s⁻¹
O=C1NC(=O)C2(N1)c1ccccc1-c1ccccc12	GABA-A receptor alpha-1/beta-3, with gamma-2 subunit (GABRA1/GABRB3, Homo sapiens, UniProt P14867+P28472)	[3H]muscimol binding		concentration not given, unit not given, with: [3H]muscimol and anaesthetic	lower is stronger	reversal of binding enhancement	0.67
CC[C@H](C)[C@@H]1NC(=O)[C@H](CO)NC(=O)[C@@H]2CCCN2C(=O)[C@@H](NC(=O)CN)CSSC[C@@H]2NC(=O)CNC(=O)[C@H](C)NC(=O)[C@H](CC(C)C)NC(=O)[C@@H]3CSSC[C@@H](C(=O)NCC(=O)O)NC(=O)[C@H](Cc4ccccc4)NC(=O)CNC(=O)[C@H](CC(N)=O)NC(=O)[C@@H]4CCCN4C(=O)CNC(=O)[C@H](CSSC[C@H](NC(=O)[C@H](CCCNC(=N)N)NC(=O)[C@H](Cc4c[nH]cn4)NC(=O)[C@H](CCCNC(=N)N)NC(=O)[C@H](CCCCN)NC(=O)[C@H](C(C)C)NC(=O)[C@H](CCCNC(=N)N)NC(=O)[C@H](CC(N)=O)NC1=O)C(=O)N[C@@H](CCCCN)C(=O)N[C@@H](CCC(N)=O)C(=O)N[C@@H](CC(=O)O)C(=O)N[C@@H](CO)C(=O)N[C@@H](CC(=O)O)C(=O)N3)NC(=O)[C@H](C(C)C)NC2=O	Low-density lipoprotein receptor-related protein 6, E1 domain (LRP6, Homo sapiens, UniProt O75581)	binding, SPR		pH 7.5		kon	2.72e+06 ± 630000 M⁻¹ s⁻¹

Excerpt of the above:
SMILES	target	test	system	setting	how to read	measurement	result
Cc1occc(=O)c1[O-].[Cl-].[W+4].c1cc[cH-]c1.c1cc[cH-]c1	ALB	fluorescence quenching		288 K		Stern-Volmer quenching constant	11900 L/mol
CC[C@@H]1[C@H](F)C(=O)N[C@@H]1COc1nccc2cc(C(N)=O)c(OC)cc12	SNRK (Homo sapiens, UniProt Q9NRH2)	ATP-site probe binding, ActivX profiling	THP-1 cell lysate	0.2 mM, Lys1 site		inhibition	8.5%
